Measurements gathered from unrelated publications.
Compare with care: the assays were run in different laboratories. ± gives the spread as reported.

The solubility of C=CC[C@@H]1/C=C(\C)C[C@H](C)C[C@H](OC)[C@H]2O[C@@](O)(C(=O)C(=O)N3CCCC[C@H]3C(=O)O[C@H](/C(C)=C/[C@@H]3CC[C@@H](O)[C@H](OC)C3)[C@H](C)[C@@H](O)CC1=O)[C@H](C)C[C@@H]2OC is reported as 368 ± 12.8 µg/mL (shake flask; 30% w/v nicotinamide solution; 3 days, 37 °C).
CCc1nc2c(C)cc(N3CCN(CC(=O)N4CC(O)C4)CC3)cn2c1N(C)c1nc(-c2ccc(F)cc2)c(C#N)s1 has a solubility of 3490 µg/mL (FeSSIF).
CN1CC[C@H](c2c(O)cc(O)c3c(=O)cc(/C=C/c4c(Cl)cccc4Cl)oc23)[C@H](O)C1 has a solubility of > 10000 µg/mL (MeOH/CHCl3 75:25 v/v).
The solubility of COc1ccc(-c2cc(=O)c3c(O)c(OC)c(OC)c(OC)c3o2)cc1 is reported as > 6 µM (solvent injection method; 0.5% PVA aqueous solution; 72 h, 25 °C).
CN1C(=O)C2(Nc3ccccc3C(=O)N2Cc2cccnc2)c2cc(Br)ccc21 (stereo not shown) gave a solubility of 20 ± 1.2 µM (dried DMSO stock; PBS; pH 7.4).
The solubility of CC(=O)O[C@H]1C(=O)[C@@]2(C)[C@H]([C@H](OC(=O)c3ccccc3)[C@]3(O)C[C@H](OC(=O)[C@H](OC(=O)OCc4cc(P(=O)(O)O)ccc4OP(=O)(O)O)[C@@H](NC(=O)c4ccccc4)c4ccccc4)C(C)=C1C3(C)C)[C@]1(OC(C)=O)CO[C@@H]1C[C@@H]2O is reported as > 49000 µg/mL (HBSS; 30 s, pH 6.5).
The solubility of CC(=O)Oc1cc(-c2coc3cc(OC(C)=O)c(OC(C)=O)c(OC(C)=O)c3c2=O)cc(OC(C)=O)c1OC(C)=O is reported as > 100 µM (aqueous buffer).
With CCCCN1C(=O)c2ccccc2NC12C(=O)N(C)c1ccc(Br)cc12 (stereo not shown) the solubility was 2.4 to 7.5 µM (dried DMSO stock; PBS; pH 7.4).
With Oc1ccc(/C=C/c2cc(O)cc(O)c2)cc1 the solubility was 374000 µg/mL (shake flask; PEG-400; 25 °C).
For CSc1cc(C)nc(SC)c1NC(=O)CN1CCN(CCSc2nc3ccccc3[nH]2)CC1.Cl, the solubility was 3240 µg/mL (0.01 N HCl aqueous; 24 h, pH 2.3).
`Tannic acid` has a solubility of > 100 µM (aqueous buffer).
COc1cc2c(cc1OC)CN(CCc1ccc(NC(=O)c3cccc4c(=O)c5cccc(OC)c5[nH]c34)cc1)CC2 has a solubility of 4200 ± 200 µg/mL (Cremophor EL microemulsion; 24 h, 37 °C).
CCCCC(CC)COC(=O)CC(C(=O)OCC(CC)CCCC)S(=O)(=O)O.CN(C)C(=N)N=C(N)N (stereo not shown) has a solubility of > 200 mg/g (Capryol 90 (propylene glycol monocaprylate)).
The solubility of C[C@](N)(Cc1ccc(O)c(O)c1)C(=O)O is reported as 303 µg/mL (static gravimetric method; supercritical CO2, 777.5 kg/m3; 5 h, 333 K, pressure 24 MPa).
For COC(=O)/C=C/C(=O)O, the solubility was ≥ 7380 µM (HBSS and DMEM media; soluble up to).
CC(=O)O[C@@]12CO[C@@H]1C[C@H](O)[C@@]1(C)C(=O)[C@H](O)C3=C(C)[C@@H](OC(=O)[C@H](O)[C@@H](NC(=O)OC(C)(C)C)c4ccccc4)C[C@@](O)([C@@H](OC(=O)c4ccccc4)[C@H]21)C3(C)C has a solubility of 52100 ± 1500 µg/mL (Miglyol 808; 24 h, room temperature).
The solubility of COc1cc(/C=C/C(=O)CC(=O)/C=C/c2ccc(O)c(OC)c2)ccc1O is reported as 2680 ± 250 µg/mL (1,2-propanediol; 48 h, room temperature).
With C=CC[C@@H]1/C=C(\C)C[C@H](C)C[C@H](OC)[C@H]2O[C@@](O)(C(=O)C(=O)N3CCCC[C@H]3C(=O)O[C@H](/C(C)=C/[C@@H]3CC[C@@H](O)[C@H](OC)C3)[C@H](C)[C@@H](O)CC1=O)[C@H](C)C[C@@H]2OC the solubility was 136000 ± 5920 µg/mL (menthol/camphor eutectic; menthol/camphor ratio 3/1 w/w).
NC(=O)c1[nH]c2ccc(Cl)cc2c1S(=O)(=O)c1ccccc1 has a solubility of 45.1 µg/mL (10% w/v M-β-CD in water; 120 h, ambient).
The solubility of CC(C)CCn1c(CN2CCN(C(=O)C3CC3)CC2)nc2c1c(=O)n(C)c(=O)n2C is reported as > 60 µg/mL (aqueous buffer; pH 7.4).
For CC(/C=C/C=C(\C)C(=O)O)=C\C=C\C=C(C)\C=C\C=C(/C)C(=O)O, the solubility was < 0.5 µg/mL (shake-flask; FaSSGF; 1 h, pH 1.6, 37 °C).
For CCC[C@@]1(CCc2ccccc2)CC(O)=C([C@H](CC)c2cccc(NS(=O)(=O)c3ccc(C(F)(F)F)cn3)c2)C(=O)O1, the solubility was 5900 ± 300 µg/mL (sesame oil; 72 h, 37 °C).
The solubility of COc1ccc2c(c1)c(CC(=O)O)c(C)n2C(=O)c1ccc(Cl)cc1 is reported as ~1100 µg/mL (in vitro lipolysis; digested blank lipid formulation; 24 h, pH 6.5, 37 °C).
With CN1C(=O)C2(Nc3ccccc3C(=O)N2Cc2ccco2)c2cc(Br)ccc21 (stereo not shown) the solubility was 4 to 16 µM (dried DMSO stock; PBS; pH 7.4).
CN(C)C(=O)c1cc2cnc(Nc3ccc(N4CCNCC4)cn3)nc2n1C1CCCC1 has a solubility of > 2400 µg/mL (acetate buffer; 24 h, pH 4.5, 37 °C).

Repeated from above:
CN1C(=O)C2(Nc3ccccc3C(=O)N2Cc2cccnc2)c2cc(Br)ccc21 (stereo not shown) gave a solubility of 20 ± 1.2 µM (dried DMSO stock; PBS; pH 7.4).
The solubility of CC(=O)O[C@H]1C(=O)[C@@]2(C)[C@H]([C@H](OC(=O)c3ccccc3)[C@]3(O)C[C@H](OC(=O)[C@H](OC(=O)OCc4cc(P(=O)(O)O)ccc4OP(=O)(O)O)[C@@H](NC(=O)c4ccccc4)c4ccccc4)C(C)=C1C3(C)C)[C@]1(OC(C)=O)CO[C@@H]1C[C@@H]2O is reported as > 49000 µg/mL (HBSS; 30 s, pH 6.5).
